Literature values as cited in several papers.
± gives the spread as reported.

`O=C(Cn1cc(Cn2c(=O)c(Cc3ccccc3)nc3ccccc32)nn1)N/N=C/c1cccnc1` gave an IC50 of 2.2 µM (HCT-116; cytotoxicity).
For `CCC1=C(O)c2c(oc(-c3cccc4ccccc34)cc2=O)C(CC)(CC)C1=O`, the IC50 was 0.77 µM (KB-VIN (P-gp-overexpressing MDR); cell growth, SRB).
`CC1=NN(c2nc(-c3ccc(Cl)cc3)cs2)C(c2ccc(F)cc2)C1` (stereo not drawn) gave an IC50 of 0.07 µM (MCF7; cytotoxicity).
With `CCC1=C(O)c2c(oc(-c3ccc4ccccc4c3)cc2=O)C(CC)(CC)C1=O` the IC50 was 1.16 µM (KB-VIN (P-gp-overexpressing MDR); cell growth, SRB).
With `CC(C)C1=C(O)C(=O)C2=C(C1=O)[C@H](O)[C@@H](O)[C@H]1C(C)(C)CCC[C@]21C` the GI50 was greater than 30 µM (UACC-62).
`CC(C)C[C@@H](NC(=O)[C@H](C)NC(=O)CNC(=O)[C@@H](NC=O)C(C)C)C(=O)N[C@@H](C)C(=O)N[C@@H](C(=O)N[C@H](C(=O)N[C@@H](C(=O)N[C@@H](Cc1c[nH]c2ccccc12)C(=O)N[C@H](CC(C)C)C(=O)N[C@@H](Cc1c[nH]c2ccccc12)C(=O)N[C@H](CC(C)C)C(=O)N[C@@H](Cc1c[nH]c2ccccc12)C(=O)N[C@H](CC(C)C)C(=O)N[C@@H](Cc1c[nH]c2ccccc12)C(=O)NCCO)[C@H](C)O)C(C)C)C(C)C` has an IC50 of greater than 1 µM (P388; cytotoxicity).
`COCCOCCOCCOCCC(=O)NCc1cc(CNC(=O)CCOCCOCCOCCOC)cc(-c2cc3cc4nc(c(OC)c5[nH]c(cc6nc(cc2[nH]3)CC6(C)C)cc5-c2cc(CNC(=O)CCOCCOCCOCCOC)cc(CNC(=O)CCOCCOCCOCCOC)c2)CC4(C)C)c1` gave a kf^−1 of 16 ns (DMF; room temperature).
With `O=C(/C=C/c1ccc(O)c(O)c1)NCCc1ccc(O)cc1` the IC50 was greater than 100 µM (RAW264.7; cytotoxicity; 24 h).
`CCC1=C(O)c2c(oc(-c3ccc(OC)c4ccccc34)cc2=O)C(CC)(CC)C1=O` has an IC50 of 1.56 µM (KB-VIN (P-gp-overexpressing MDR); cell growth, SRB).
`CC1=C(Cn2c3cccc(=O)c-3nc3ccccc32)CCC(C)(C)C1` has an IC50 of 0.09 µg/mL (P388 mouse leukaemia; cytotoxicity).
`Fc1cc2nc3c4cccnc4c4ncccc4c3nc2cc1F.[Cl-].[Cl-].[Ru+2].c1ccncc1.c1ccncc1.c1ccncc1.c1ccncc1` has an IC50 of greater than 200 µM (L-O2; cytotoxicity; dark).
The GI50 of `CC(=O)O[C@H]1C2=C(C(=O)C(OC(=O)c3ccccc3)=C(C(C)C)C2=O)[C@@]2(C)CCCC(C)(C)[C@@H]2[C@@H]1OC(=O)c1ccccc1` is reported as no more than 5 µM (MEL1).
`COc1cc(/C=C/C(=O)NCCc2ccc(O)c(OC)c2)ccc1O` has an IC50 of greater than 100 µM (RAW264.7; cytotoxicity; 24 h).
`CN1C(=O)[C@@H](Cc2ccc(O)cc2)NC(=O)CNC(=O)[C@H](Cc2ccc3ccccc3c2)NC(=O)[C@H](CCCNC(=N)N)NC(=O)[C@H]1CCCNC(=O)c1ccc(CNC(=O)CN2CCN(CC(=O)O)CCN(CC(=O)O)CCN(CC(=O)O)CC2)cc1` [gallium-68 labelled] — result for “absorbed dose coefficient”: 0.01 mGy/MBq (PET dosimetry; human patients, brain).
With `COc1cc(/C=C/C(=O)NCCc2ccc(OC)c(OC)c2)ccc1O` the IC50 was greater than 100 µM (RAW264.7; cytotoxicity; 24 h).
`CCOC(=O)C1=C(NC2CCCCC2)Oc2c(c(C)nc3c(C#N)c(C)nn23)C1C(=O)OCC` (stereo not drawn) gave an IC50 of 19.7 ± 0.89 µM (MCF7; cytotoxicity).
For `CC(C)=CCn1c2ccc(Br)c(=O)c-2nc2ccccc21`, the IC50 was 0.029 µM (HCT-116; cytotoxicity).
The Cmax of `CN1CCN(c2cc(-c3ccccc3CO)c(N(C)C(=O)C(C)(C)c3cc(C(F)(F)F)cc(C(F)(F)F)c3)cn2)CC1` is reported as 97.7 ng/mL (healthy volunteers, plasma; oral, 450 mg, single dose, together with: palonosetron 0.75 mg).

A few entries again:
With `COc1cc(/C=C/C(=O)NCCc2ccc(OC)c(OC)c2)ccc1O` the IC50 was greater than 100 µM (RAW264.7; cytotoxicity; 24 h).
`CCOC(=O)C1=C(NC2CCCCC2)Oc2c(c(C)nc3c(C#N)c(C)nn23)C1C(=O)OCC` (stereo not drawn) gave an IC50 of 19.7 ± 0.89 µM (MCF7; cytotoxicity).
